# Published values gathered from unrelated publications.
# Protocols differ between the studies behind these lines. ± marks the error that the study gave.
Structure (SMILES),tested on,test,test system,conditions,how to read,measurement,value
CC(C)C[C@@H]1NC(=O)[C@H](CC(C)C)NC(=O)[C@H](Cc2c[nH]c3ccccc23)NC(=O)[C@H](CO)NC(=O)[C@H](Cc2c[nH]c3ccccc23)NC(=O)[C@@H]2CCCN2C(=O)[C@H](CC(C)C)NC(=O)[C@H](Cc2c[nH]cn2)NC(=O)[C@@H]2CCCN2C(=O)[C@H](CC(N)=O)NC(=O)[C@H](C)NC(=O)[C@H](Cc2ccc(O)cc2)NC(=O)[C@H](CS)NC(=O)[C@H](CCCCNC(=O)CN2CCN(CC(=O)O)CCN(CC(=O)O)CCN(CC(=O)O)CC2)NC1=O [lutetium-177 labelled],,,"Balb/c mouse, female, 4T1 tumour, liver","intravenous, 3.7 MBq, 1 h",,tissue uptake,20.4 ± 4.82 %ID
COc1ccc(CCC2CCCC(CCc3ccc(OC)cc3)N2C[C@@H](O)CO)cc1.Cl (stereo in doubt),,,rat striatal slices,"3 µM, 30 min, no methamphetamine",,DOPAC overflow,155 ± 48.6 pg/30 mL/mg
CC[C@H](C)[C@@H]1NC(=O)[C@@H]2CCCN2C(=O)[C@H](CC(C)C)NC(=O)[C@H](CC(C)C)NC(=O)CNC(=O)[C@@H](NC(=O)[C@@H](NC(=O)[C@H](CC(=O)O)NC(=O)CNC(=O)[C@@H](NC(=O)[C@H](C)NC(=O)CNC(=O)[C@H](CCCCN)NC(=O)[C@H](CC(C)C)NC(=O)[C@H](CC(C)C)NC(=O)[C@H](CCCCN)NC(=O)CNC(=O)[C@@H](NC(=O)[C@@H](N)CC(C)C)C(C)C)C(C)C)C(C)C)CSSC[C@@H](C(=O)O)NC1=O,,"RNA-seq, refers to: Apold1","mouse, traumatic brain injury model, frontal cortex and hippocampus",dose not given,relative to: TBI alone,log2 fold change,-1.19
CCCCCc1cc(O)c2c(c1)OC(C)(C)[C@@H]1CCC(C)=C[C@@H]21,human CATSPER2-/- sperm,fluorimetry,,10 µM,,Ca2+ signal,inhibited
Nc1ncnc2c1ncn2[C@@H]1O[C@@H]2COP(=O)(O)O[C@H]3[C@@H](O)[C@H](n4cnc5c(=O)[nH]cnc54)O[C@@H]3COP(=O)(O)O[C@H]2[C@H]1O,HFF-1,"RNA sequencing, refers to: Reactome cytokine signaling",,upregulated pathways,relative to: mock,fold enrichment,4.98
O=C(O)C[C@H](NC(=O)[C@H](CC(=O)O)NC(=O)[C@H](CC(=O)O)NC(=O)[C@H](CC(=O)O)NC(=O)[C@H](CC(=O)O)NC(=O)[C@H](CC(=O)O)NC(=O)[C@H](CC(=O)O)NC(=O)[C@H](CC(=O)O)NC(=O)[C@H](CC(=O)O)NC(=O)[C@H](CC(=O)O)NC(=O)[C@H](CC(=O)O)NC(=O)[C@H](CCCCNC(=O)c1ccc(C(=O)NCCOCCOB2BBBBBB3BBBB3B2)cc1)NC(=O)CN1CCN(CC(=O)O)CCN(CC(=O)O)CCN(CC(=O)O)CC1)C(=O)O [gallium-67 labelled],,,"ddY male mice, brain","intravenous, 37 kBq, 1 h",,tissue uptake,0.02 %ID/g
C[C@]12CC[C@H]3[C@@H](CC=C4CC(O)CC[C@@]43CO)[C@@H]1CCC2O (stereo partly drawn),,,GAN diet MASH rats,"ip, 20 mg/kg, two weeks",relative to: GAN vehicle,plasma TAG level,decreased
COc1ccc(N2C(=O)N(c3c(C)cccc3Cl)Cc3cnc(Nc4ccc(C5CCN(C)CC5)cc4OC)nc32)nc1,"RPS6KA6 (Homo sapiens, UniProt Q9UK32)","kinase activity, inhibitor",,"0.5 µM, RSK4",,inhibition,9%
Cc1ccc(-c2cc(C(F)(F)F)nn2-c2ccc(S(N)(=O)=O)cc2)cc1,human coronavirus OC43,virus-induced cell killing,MRC-5,maximum over 10 doses,,maximum inhibition,0%
COc1cc2c(Oc3ccc4[nH]c(C)cc4c3F)ccnc2cc1OCC1(N)CC1,,,paediatric recurrent refractory sarcoma,"concentration not given, whole group",,grade 3 Leukopenia,0%
C#Cc1cccc(Nc2ncnc3cc(OC)c(OCCCCCCC(=O)NO)cc23)c1,human coronavirus OC43,virus-induced cell killing,MRC-5,maximum over 10 doses,,maximum inhibition,0%
C[C@]1(O)CC[C@H]2[C@@H]3CCC4=CC(=O)CC[C@]4(C)[C@@]3(F)[C@@H](O)C[C@@]21C,THP-1,pyroptotic LDH release,,"2 µM, 40 min, with: LPS then nigericin",,inhibition,-1.28%
CN1CC[C@@H](c2c(O)cc(O)c3c(=O)cc(-c4ccc(C(F)(F)F)cc4Cl)oc23)[C@@H]1CO,,refers to: Fatigue,B-cell malignancies,"oral, 100 mg, intermittent dosing",,patients with adverse event,33.3%
CCCCc1nc2cc(/C=C/C(=O)NO)ccc2n1CCN(CC)CC,human coronavirus OC43,virus-induced cell killing,MRC-5,maximum over 10 doses,,maximum inhibition,0%
COc1c(C)c2c(c(O)c1C/C=C(\C)CCC(=O)O)C(=O)OC2,MIA PaCa-2,cell proliferation,,,,IC50,0.631 µM
CC(=O)c1c(C)c2cnc(Nc3ccc(C4CCN(CCS(C)(=O)=O)CC4)cn3)nc2n(C2CCCC2)c1=O,,,HR+/HER2- advanced breast cancer patients,"oral, dose not given, grade 3/4,, sample A patients",,patients with ALT increased,1.2%
COc1ccc(-c2ccc3c(N4CCOCC4)nc(N4C[C@@H](C)O[C@@H](C)C4)nc3n2)cc1CO,human coronavirus OC43,virus-induced cell killing,MRC-5,maximum over 10 doses,,maximum inhibition,0%
CCCCNCCc1c[nH]c2cccc(O)c12.O=C(O)/C=C/C(=O)O,,,C57BL/6J mice,"subcutaneous, 30 mg/kg",relative to: pre-session baseline,body temperature change,-2.7 ± 0.2 °C
CC[n+]1c(-c2ccccc2)c2cc(N)ccc2c2ccc(N)cc21,human coronavirus OC43,virus-induced cell killing,MRC-5,screen,,maximum inhibition,63.2%
COc1cc(Nc2ncc(F)c(Nc3ccc4c(n3)NC(=O)C(C)(C)O4)n2)cc(OC)c1OC,"GRPR (Homo sapiens, UniProt P30550)",,,,,IC50,> 10 µM
COc1c(CCC[P+](c2ccccc2)(c2ccccc2)c2ccccc2)cc2c(c1OC)OCO2.[I-],NCI/ADR-RES,SRB,,,,Log10TGI,> -4 log M
CC[C@H](C)[C@H](NC(=O)[C@H](Cc1ccccc1)NC(=O)[C@H](CCC(=O)O)NC(=O)[C@H](CCCNC(=N)N)NC(=O)[C@H](C)NC(=O)[C@H](C)NC(=O)[C@H](CCC(N)=O)NC(=O)[C@H](CCC(=O)O)NC(=O)[C@H](CCC(=O)O)NC(=O)[C@H](CC(C)C)NC(=O)[C@H](Cc1ccc(O)cc1)NC(=O)[C@H](CO)NC(=O)[C@H](CO)NC(=O)[C@@H](NC(=O)[C@H](CC(=O)O)NC(=O)[C@H](CO)NC(=O)[C@@H](NC(=O)[C@H](Cc1ccccc1)NC(=O)[C@@H](NC(=O)CNC(=O)[C@H](CCC(=O)O)NC(=O)[C@H](C)NC(=O)CCc1c[nH]cn1)[C@@H](C)O)[C@@H](C)O)C(C)C)C(=O)N[C@@H](C)C(=O)N[C@@H](Cc1c[nH]c2ccccc12)C(=O)N[C@@H](CC(C)C)C(=O)N[C@H](C(=O)N[C@@H](CCCNC(=N)N)C(=O)NCC(=O)N[C@@H](CCCNC(=N)N)C(=O)N[C@@H](CCCCNC(=O)COCCOCCNC(=O)COCCOCCNC(=O)CC[C@H](NC(=O)CCCCCCCCCCCCCCCCC(=O)O)C(=O)O)C(=O)NCC(=O)NCC(=O)N[C@@H](CO)C(=O)N[C@@H](CCCCNc1c(NCCCCCN(O)C(=O)CCC(=O)NCCCCCN(O)C(=O)CCC(=O)NCCCCCN(O)C(C)=O)c(=O)c1=O)C(=O)O)C(C)C [zirconium-89 labelled],,,"rat, heart","sc, 3 nmol/kg, 24 h, ex vivo",,tissue uptake,0.14 %ID/g
COc1cc(CCC[P+](c2ccccc2)(c2ccccc2)c2ccccc2)c(OC)c2c1OCO2.[I-],CAKI-1,SRB,,,,LC50,> -4 log M
CC(C)NCCc1c[nH]c2cccc(O)c12.O=C(O)/C=C/C(=O)O,,,C57BL/6J mice,"subcutaneous, 0.3 mg/kg",relative to: pre-session baseline,body temperature change,0 ± 0.1 °C
O=C(c1ccc(Cl)cc1)N1CCN2C(=O)N(OC(=O)N3CCOc4ccccc43)C(=O)C2C1 (stereo not drawn),"ABHD11 (Homo sapiens, UniProt Q8NFV4)","enzyme activity, inhibitor, MS-based ABPP",SW-620 conditioned medium,"10 µM, 1 h, 37 °C","relative to: compound over DMSO, lower = stronger inhibition",median ratio,1.05
O=C(O)/C=C/C(=O)O.Oc1cccc2[nH]cc(CCNC3CCCCC3)c12,,,C57BL/6J mice,"subcutaneous, 0.3 mg/kg",relative to: pre-session baseline,body temperature change,0.1 ± 0.1 °C
C/C=C1\NC(=O)[C@H]2CSSCC/C=C/[C@H](CC(=O)N[C@H](C(C)C)C(=O)N2)OC(=O)[C@H](C(C)C)NC1=O,human coronavirus OC43,virus-induced cell killing,MRC-5,maximum over 10 doses,,maximum inhibition,0%
O=C(O)c1nn(Cc2ccc(Cl)cc2Cl)c2ccccc12,NLRP3 inflammasome (mouse),,mouse BMDM,10 µM,,inhibition,35.5%
CCCCC1(CCCC)CN(c2ccccc2)c2cc(SC)c(OCC(=O)N[C@@H](C(=O)NCC(=O)O)c3ccccc3)cc2S(=O)(=O)C1,,refers to: LDL cholesterol,"human, serum","15 mg once daily, day 7",,serum LDL-C,78.2 mg/dL
COc1cc(CCNC(C)c2ccccc2O)c(OC)cc1Br.Cl (stereo not drawn),"5-HT2A L123V mutant, human","Gq dissociation, BRET",,,relative to: wild-type 5-HT2A,fold loss in potency,42 fold
CC(C)(C(=O)NCC(F)(F)C(F)(F)F)C(=O)N[C@@H]1C(=O)Nc2ccccc2-c2ccccc21,human coronavirus OC43,virus-induced cell killing,MRC-5,maximum over 10 doses,,maximum inhibition,0%
Clc1ccccc1C1(c2ccnc(-c3ccccc3)n2)CCNCC1,Vero-E6,CellTiter-Glo ATP,,"72 h, retest 8-point duplicates","relative to: DMSO 0%, hyamine -100%, more negative, more toxic",maximum response,-10.2%
C[C@@H](O)[C@@H](CO)NC(=O)[C@@H](CCCNC(=N)N)NC(=O)[C@@H]1CCCN1C(=O)[C@@H]1CSSC[C@H](NC(=O)[C@H](Cc2ccccc2)NC(=O)CN2CCN(CC(=O)O)CCN(CC(=O)O)CCN(CC(=O)O)CC2)C(=O)N[C@@H](Cc2ccc(O)cc2)C(=O)N[C@@H](Cc2ccccc2)C(=O)N[C@@H](CCC(N)=O)C(=O)N[C@@H](CC(N)=O)C(=O)N1 [gallium-68 labelled],,,"healthy Wistar rat, muscle","intravenous, 8 MBq, 120 min, individual animals",,tissue uptake,0.07 %ID/g
C=CC[C@@H]1c2ccc(OC)c(OC)c2CN2CCc3cc4c(cc3[C@H]12)OCO4,Staphylococcus aureus,,"P2rx7+/+ mice, skin wound infection","dose not given, day 1",relative to: day 0,relative wound size,1.24
C[C@H]1CN(c2n[nH]c3nc(N[C@H]4CC[C@H](NS(=O)(=O)CCC(F)(F)F)CC4)ncc23)CCO1,"Filamin-C (FLNC, Homo sapiens, UniProt Q14315)","Kinobeads competition, refers to: FLNC",,"20 µM, unit not given",relative to: vehicle,remaining binding,1.15
CCNCCc1c[nH]c2cccc(O)c12.CCNCCc1c[nH]c2cccc(O)c12.O=C(O)CCC(=O)O,,,C57BL/6J mice,"subcutaneous, 0.03 mg/kg",relative to: pre-session,body temperature change,-0.5 ± 0.3 °C
CC(C)N1CCC(NC2CCN(c3cccc(-c4cc5cc(F)ccc5[nH]4)c3)CC2)CC1,Malme-3M,,,,,GI50,1.94 µM
Cc1cc(C)c(S(=O)(=O)n2cc(C)cc2C)c(C)c1,human coronavirus OC43,virus-induced cell killing,MRC-5,screen,,maximum inhibition,4.7%
CCCNCCc1c[nH]c2cccc(O)c12.CCCNCCc1c[nH]c2cccc(O)c12.O=C(O)/C=C/C(=O)O,,,C57BL/6J mice,"subcutaneous, 0.3 mg/kg",relative to: pre-session baseline,body temperature change,-0.1 ± 0.1 °C

# Excerpt of the above:
Structure (SMILES),tested on,test,test system,conditions,how to read,measurement,value
COc1ccc(N2C(=O)N(c3c(C)cccc3Cl)Cc3cnc(Nc4ccc(C5CCN(C)CC5)cc4OC)nc32)nc1,"RPS6KA6 (Homo sapiens, UniProt Q9UK32)","kinase activity, inhibitor",,"0.5 µM, RSK4",,inhibition,9%
Cc1ccc(-c2cc(C(F)(F)F)nn2-c2ccc(S(N)(=O)=O)cc2)cc1,human coronavirus OC43,virus-induced cell killing,MRC-5,maximum over 10 doses,,maximum inhibition,0%
COc1cc2c(Oc3ccc4[nH]c(C)cc4c3F)ccnc2cc1OCC1(N)CC1,,,paediatric recurrent refractory sarcoma,"concentration not given, whole group",,grade 3 Leukopenia,0%
